Assay results collected from several papers.
Protocols differ between the studies behind these lines. ± marks the error that the study gave.

| SMILES | test | system | setting | how to read | endpoint | result |
| --- | --- | --- | --- | --- | --- | --- |
| Cc1cc(-c2nnc(N)nc2-c2ccc(F)cc2)cc(Cl)n1 | item: psoriasiform dermatitis | IO-naive mCRPC patients, male | oral, dose not given, treatment-related, grade 2 |  | patients with immune-mediated AE | 0% |
| CC(C)(C(=O)N1CCOc2c(C#N)cncc2C1)C(F)F |  | healthy humans, both sexes, plasma | oral, 30 mg single dose, 3-fold dose increase | relative to: 30 mg over 10 mg | AUClast dose proportionality ratio | 2.16 |
| N#C[C@@]1(c2ccc3c(N)ncnn23)O[C@H](CO)[C@@H](O)[C@H]1O |  | beagle dog male, plasma | oral capsule, 6.5 mg/kg, 3 h |  | plasma concentration | 6.52 µM |
| CC(C)C[C@H](NC(=O)[C@H](CC(C)C)NC(=O)[C@H](Cc1c[nH]c2ccccc12)NC(=O)[C@H](CCC(=O)O)NC(=O)[C@@H](NC(=O)[C@H](Cc1ccccc1)NC(=O)[C@H](CCC(=O)O)NC(=O)[C@H](CCCCNC(=O)COCCOCCNC(=O)COCCOCCNC(=O)CC[C@H](NC(=O)CCCCCCCCCCCCCCCCCCC(=O)O)C(=O)O)NC(=O)[C@H](C)NC(=O)[C@H](CCCCN)NC(=O)[C@H](CCCCN)NC(=O)[C@H](CCC(=O)O)NC(=O)[C@H](CC(=O)O)NC(=O)[C@H](CC(C)C)NC(=O)[C@H](Cc1ccc(O)cc1)NC(=O)[C@H](CCCCN)NC(=O)[C@H](CO)NC(=O)[C@H](Cc1ccc(O)cc1)NC(=O)[C@H](CC(=O)O)NC(=O)[C@H](CO)NC(=O)[C@@H](NC(=O)[C@H](Cc1ccccc1)NC(=O)[C@@H](NC(=O)CNC(=O)[C@H](CCC(N)=O)NC(=O)C(C)(C)NC(=O)[C@@H](N)Cc1c[nH]cn1)[C@@H](C)O)[C@@H](C)O)C(C)C)C(=O)N[C@@H](CCC(=O)O)C(=O)NCC(=O)NCC(=O)N1CCC[C@H]1C(=O)N[C@@H](CO)C(=O)N[C@@H](CO)C(=O)NCC(N)=O |  | human, plasma | subcutaneous, 16 mg weekly, week 20, cohorts 1 and 2 |  | tmax,ss | 12 h |
| C=CC(=O)Nc1cc(Nc2nccc(-c3cn(C)c4ccccc34)n2)c(OC)cc1N(C)CCN(C)C | storage stability | human dried blood spot | 10 d, -80 °C, LQC level |  | recovery | 98.2% |
| COc1ccc2c3c([nH]c2c1)[C@H](CC(C)C)N1C(=O)[C@H](CC(=O)NC(C)C)NC(=O)[C@@H]1C3 |  | wild-type mouse | oral, 100 mg/kg, 23 days |  | liver histology | no effect |
| CSc1ccccc1C(=O)NCCn1cc(C(=O)NCc2cccc(C)n2)c(=O)c2cc3c(cc21)OC(F)(F)O3 |  | Sprague-Dawley rat, male, plasma | intramuscular, 3 mg/kg of parent compound |  | AUC(0-t) | 55 ± 14.2 ng·h/mL |
| CNC(=O)c1ccc(-c2cnc3ncc(Cc4ccc5ncccc5c4)n3n2)cc1F |  | human moderate hepatic impairment | oral, 200 mg single dose, adjusted geometric mean |  | unbound AUC(0-inf) | 182 ng·h/mL |
| CC[C@H](C)[C@H](NC(=O)[C@H](CO)NC(=O)[C@H](Cc1ccc(O)cc1)NC(=O)[C@H](CC(=O)O)NC(=O)[C@H](CO)NC(=O)[C@@H](NC(=O)[C@H](Cc1ccccc1)NC(=O)[C@@H](NC(=O)CNC(=O)[C@H](CCC(=O)O)NC(=O)[C@H](C)NC(=O)[C@@H](N)Cc1ccc(O)cc1)[C@@H](C)O)[C@@H](C)CC)C(=O)N[C@@H](C)C(=O)N[C@@H](CCSC)C(=O)N[C@@H](CC(=O)O)C(=O)N[C@@H](CCCCN)C(=O)N[C@H](C(=O)N[C@@H](Cc1c[nH]cn1)C(=O)N[C@@H](CCC(N)=O)C(=O)N[C@@H](CCC(N)=O)C(=O)N[C@@H](CC(=O)O)C(=O)N[C@@H](Cc1ccccc1)C(=O)N[C@H](C(=O)N[C@@H](CC(N)=O)C(=O)N[C@@H](Cc1c[nH]c2ccccc12)C(=O)N[C@@H](CC(C)C)C(=O)N[C@@H](CC(C)C)C(=O)N[C@@H](C)C(=O)N[C@@H](CCC(N)=O)C(=O)N[C@@H](CCCCN)C(=O)NCC(=O)N[C@@H](CCCCN)C(=O)N[C@@H](CCCCN)C(=O)N[C@@H](CC(N)=O)C(=O)N[C@@H](CC(=O)O)C(=O)N[C@@H](Cc1c[nH]c2ccccc12)C(=O)N[C@@H](CCCCN)C(=O)N[C@@H](Cc1c[nH]cn1)C(=O)N[C@@H](CC(N)=O)C(=O)N[C@H](C(=O)N[C@H](C(=O)N[C@@H](CCC(N)=O)C(=O)O)[C@@H](C)O)[C@@H](C)CC)C(C)C)[C@@H](C)CC | GIPR luciferase bioassay | C57BL/6 mice, male, serum | subcutaneous, 1.25 µg, below detection limit |  | serum concentration | < 0.05 nM |
| CCc1cc(C(=O)NC)c2nccc(N3CCc4c(cc(Cn5ccnc5)cc4-c4cn(C)nc4C(F)(F)F)C3=O)c2c1 |  | Sprague Dawley rats | oral, 50 mg/kg once daily, 7 days |  | serum CREA level | 47.1 ± 3.46 µmol/L |
| C=CCN1CC(=O)N2[C@@H](Cc3ccc(O)cc3F)C(=O)N(Cc3cccc(N4CC(N5CCN(CC)CC5)C4)n3)C[C@@H]2N1C(=O)NCc1ccccc1 |  | advanced solid tumour patients | oral, 45 mg twice daily, grade ≥3, dose-escalation |  | any treatment-related adverse event | 0% |
| O=C(O)c1cccc(C(=O)O)c1 |  | betaine/ethylene glycol DES-water | DES mass fraction 0.40 |  | apparent dissolution enthalpy | 1.81 kcal/mol |
| CC(C)(C)C(=O)/N=S(\c1ccc(C(F)(F)F)cc1)C1CC1 (centres unmarked) |  | human liver microsomes |  | relative to: hepatic blood flow | metabolic stability | < 23% |
| CO[C@H]1C[C@@H]2CC[C@@H](C)[C@@](O)(O2)C(=O)C(=O)N2CCCC[C@H]2C(=O)O[C@H]([C@H](C)C[C@@H]2CC[C@@H](O)[C@H](OC)C2)CC(=O)[C@H](C)/C=C(\C)[C@@H](O)[C@@H](OC)C(=O)[C@H](C)C[C@H](C)/C=C/C=C/C=C/1C |  | healthy adult horses | intravenous, 0.06 mg/kg, 12 h |  | rectal temperature | 37.8 ± 0.2 °C |
| COc1ccnc(C(=O)O)c1O | aerobic soil incubation | soil | worst-case terminal value, for exposure modelling |  | DT50 | 1000 days |
| CO[C@H]1CC[C@H](N2C(=O)CNc3ncc(-c4ccc(C(C)(C)O)nc4)nc32)CC1 |  | patients, urine | oral, 30 mg, day -1, geometric mean |  | renal clearance | 0.383 mL/min |
| CNC(=O)c1ccc(-c2cnc3ncc(Cc4ccc5ncccc5c4)n3n2)cc1F |  | Japanese patients | oral, 400 mg, grade 3/4 |  | Nausea dose reduction/interruption | 0% |
| OC[C@H]1O[C@@H](c2ccc(F)c(Cc3cc4ccccc4s3)c2)[C@H](O)[C@@H](O)[C@@H]1O |  | Japanese type 2 diabetes patients, plasma | oral, 100 mg/day, day 14 |  | renal clearance | 2.32 ± 0.603 mL/min |
| CC1(C)CCC(CN2CCN(c3ccc(C(=O)NS(=O)(=O)c4ccc(NCC5CCOCC5)c([N+](=O)[O-])c4)c(Oc4cnc5[nH]ccc5c4)c3)CC2)=C(c2ccc(Cl)cc2)C1 |  | human female, plasma | oral |  | Vss | 3.22 L/kg |
| C[C@@H](Nc1cc(F)cc(F)c1)c1cc(C(=O)N(C)C)cc2c(=O)cc(N3CCOCC3)oc12 |  | advanced solid tumour patients | oral, 120 mg twice daily, continuous monotherapy |  | any dose reduction | 40% |
| O=C(N[C@H](Cc1c[nH]c2ccccc12)C(=O)Nc1ccncc1)c1ccc(-c2cc(C(F)(F)F)ccc2F)cc1F |  | Swiss Webster mouse, female, muscle | oral, 50 mg/kg, 8 h, 20% Kolliphor vehicle |  | concentration | 9.41 µM |
| C[C@H]1Oc2cc(cnc2N)-c2c(nn(C)c2C#N)CN(C)C(=O)c2ccc(F)cc21 | population PK | patients with mild hepatic impairment (NCI sample A), plasma | oral, 100 mg, median, single dose |  | clearance | 137 mL/min |
| COc1cc2c(cc1OC)C(=O)C(CC1CCN(Cc3ccccc3)CC1)C2 (centres unmarked) |  | human subjects | unit not given | relative to: placebo | LSEQ behaviour after wake | 1.66 |
| CCO[C@H]1CCN(Cc2c(OC)cc(C)c3[nH]ccc23)[C@H](c2ccc(C(=O)O)cc2)C1 |  | human mild hepatic impairment, plasma | oral, 200 mg single dose, mean |  | unbound Cmax | 1070 ng/mL |
| FC(F)(F)c1ccc(CNc2ccc(Cc3c[nH]c4ncc(Cl)cc34)cn2)cn1 | item: alanine aminotransferase increased | patients with advanced solid tumours | oral, dose not given, grade 1 and 2, possibly related to drug |  | adverse event incidence | 17% |
| O=C(Nc1cnccc1Cl)N1CCN(Cc2ccc3c(c2)OC(F)(F)O3)CC1 |  | healthy young men, urine | oral, 75 mg once daily, day 10 |  | renal clearance | 0.135 mL/min |
| N#Cc1ccc2c(c1)[C@H]1CCCN(C(=O)c3ccc4[nH]cnc4c3)[C@H]1C2 |  | human males | 160 mg, end of trial |  | total testosterone level | 11.1 nmol/L |
| CCN1/C(=C/C(C)=O)Sc2ccc(F)cc21 |  | cynomolgus monkey | oral, 100 mg/kg, 6 h post-dose | relative to: pre-dose | PR interval change | 104 ± 2.5% |
| CCCCC[C@H](O)CC[C@@H]1[C@H]2Cc3cccc(OCC(=O)O)c3C[C@H]2C[C@H]1O | LC-MS/MS | Japanese IPAH/HPAH patients, plasma | inhaled, 54 µg |  | geometric mean AUC(0-last) | 0.91 ng·h/mL |
